Published values of several laboratories.
Numbered parts are unrelated; each lists some results of a single study. Positions count from the first letter of the parent shown.
Sequence of UniProt Q969T4 (whole entry, looked up): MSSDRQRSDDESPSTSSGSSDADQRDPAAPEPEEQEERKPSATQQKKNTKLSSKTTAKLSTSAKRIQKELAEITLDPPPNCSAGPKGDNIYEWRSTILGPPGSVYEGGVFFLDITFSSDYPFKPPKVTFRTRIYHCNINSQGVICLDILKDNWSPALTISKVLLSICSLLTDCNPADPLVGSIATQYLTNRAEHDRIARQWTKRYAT
Sequence of UniProt P61081 (whole entry, looked up): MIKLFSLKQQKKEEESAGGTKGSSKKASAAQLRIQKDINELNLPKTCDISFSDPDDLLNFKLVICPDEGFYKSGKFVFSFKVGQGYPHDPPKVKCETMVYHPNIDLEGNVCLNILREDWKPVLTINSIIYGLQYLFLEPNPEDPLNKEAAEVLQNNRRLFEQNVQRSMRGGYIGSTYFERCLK
Sequence of UniProt Q9H832 (whole entry, looked up): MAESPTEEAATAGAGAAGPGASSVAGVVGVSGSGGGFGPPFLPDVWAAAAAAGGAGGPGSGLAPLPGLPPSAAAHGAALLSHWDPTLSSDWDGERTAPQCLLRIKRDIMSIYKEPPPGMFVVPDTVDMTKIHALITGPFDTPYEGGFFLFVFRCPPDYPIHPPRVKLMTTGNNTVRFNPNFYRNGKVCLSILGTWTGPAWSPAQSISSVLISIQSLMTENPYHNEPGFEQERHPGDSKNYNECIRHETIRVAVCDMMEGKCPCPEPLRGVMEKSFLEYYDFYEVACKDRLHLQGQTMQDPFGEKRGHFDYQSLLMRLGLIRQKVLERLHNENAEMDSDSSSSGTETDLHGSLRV
Sequence of UniProt Q9NPD8 (whole entry, looked up): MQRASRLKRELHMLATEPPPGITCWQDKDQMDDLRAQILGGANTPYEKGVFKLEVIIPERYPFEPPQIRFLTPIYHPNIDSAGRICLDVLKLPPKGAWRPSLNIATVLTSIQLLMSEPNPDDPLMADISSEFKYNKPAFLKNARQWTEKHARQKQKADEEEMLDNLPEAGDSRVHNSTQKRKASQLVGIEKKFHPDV
Sequence of UniProt Q8N2K1 (whole entry, looked up): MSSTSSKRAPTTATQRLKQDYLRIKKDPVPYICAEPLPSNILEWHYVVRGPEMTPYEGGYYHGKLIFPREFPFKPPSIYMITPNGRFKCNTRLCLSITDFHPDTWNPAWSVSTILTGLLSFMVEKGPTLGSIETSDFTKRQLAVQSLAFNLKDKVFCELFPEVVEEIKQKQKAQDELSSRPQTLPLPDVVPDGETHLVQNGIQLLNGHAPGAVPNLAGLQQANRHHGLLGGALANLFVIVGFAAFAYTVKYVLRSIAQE
Sequence of UniProt Q712K3 (whole entry, looked up): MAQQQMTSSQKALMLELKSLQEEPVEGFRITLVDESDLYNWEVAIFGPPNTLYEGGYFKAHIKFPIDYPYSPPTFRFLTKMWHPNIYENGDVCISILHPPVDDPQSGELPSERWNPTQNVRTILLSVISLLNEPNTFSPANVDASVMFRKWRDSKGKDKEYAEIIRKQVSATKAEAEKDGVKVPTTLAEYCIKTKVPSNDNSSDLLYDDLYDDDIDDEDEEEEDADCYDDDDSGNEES
Sequence of UniProt P68036 (whole entry, looked up): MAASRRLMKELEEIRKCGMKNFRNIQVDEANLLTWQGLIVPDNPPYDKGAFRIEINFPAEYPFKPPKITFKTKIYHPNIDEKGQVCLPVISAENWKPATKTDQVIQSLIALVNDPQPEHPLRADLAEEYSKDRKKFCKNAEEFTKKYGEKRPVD
Sequence of UniProt Q16763 (whole entry, looked up): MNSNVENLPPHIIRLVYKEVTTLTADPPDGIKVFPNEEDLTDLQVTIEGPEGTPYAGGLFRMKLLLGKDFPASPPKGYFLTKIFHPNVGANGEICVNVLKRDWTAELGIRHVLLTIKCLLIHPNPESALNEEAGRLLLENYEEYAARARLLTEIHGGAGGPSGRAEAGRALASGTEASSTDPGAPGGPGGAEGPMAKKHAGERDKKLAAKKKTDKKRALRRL

Set 1 — method: EMSA with sequencing; molecule type: double-stranded DNA, one strand shown; matrix: in vitro; concentration: 10 and 20 nM; relative to: negative control set to 0; reading: higher = stronger binding
Target: Hepatocyte nuclear factor 3-alpha (Foxa1, Mus musculus, UniProt P35582, residues 1-468, full length assumed)
Setting: whole designed probe, mean of two concentrations, ends assumed
Shared flanks, not repeated: GTGAGCGGTGCCCATTGATGGGGAAC … TTTCACTGGGATCGTGGGGAC
Construct (chain): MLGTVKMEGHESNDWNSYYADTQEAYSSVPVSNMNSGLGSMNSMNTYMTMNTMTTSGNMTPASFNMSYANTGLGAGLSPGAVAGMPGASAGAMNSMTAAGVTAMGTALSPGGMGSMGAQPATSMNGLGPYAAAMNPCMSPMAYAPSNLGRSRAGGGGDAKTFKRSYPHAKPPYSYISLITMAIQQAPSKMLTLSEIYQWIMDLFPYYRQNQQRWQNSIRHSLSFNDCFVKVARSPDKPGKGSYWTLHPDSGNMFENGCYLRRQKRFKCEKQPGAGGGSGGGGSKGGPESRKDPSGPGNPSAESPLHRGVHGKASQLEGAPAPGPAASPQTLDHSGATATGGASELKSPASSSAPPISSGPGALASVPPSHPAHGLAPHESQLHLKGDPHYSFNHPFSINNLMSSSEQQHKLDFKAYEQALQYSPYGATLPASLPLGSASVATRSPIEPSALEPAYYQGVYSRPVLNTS
Strand | normalised bound fraction [ratio]
TAAATAGCTGTCTGTGGGAGTGTTGACACTGTTGCTATTCAGTGGACTCTAGATATGCAGCCAGATGAACTTTGTGAAGATGAACTTATCAGTGTAAATAAGGAAAGTGGTTGTGATGAAAAGCATGAATGTTCCAGGGGAAATGACTCTGGCAAATTTTTCACATTAAAGGAACTCTTGGAGATACTTCACA | 0.195
AATGAGCTAAGATTCCAACTTAAAAAATGTAAGAATAAACCTGGTGTATCATTCCCAAAGAAAAAGAGCAGTTTAGAAATAATAAGAGCACAAAAATGACATAGAAAAGAAAGACACAGTAGAGAAGATCAACAAAACCAAGAACTGGTTCATAGAAAAATAGCAATAAAATAGACTTCAGGCAAAATTATCC | 0.0609
GATGTTTTTGTTGTTGTTAATCTGGAGCTAAGGATGGTTGCATTGAGATTGCATTCTAGATAACAAAGCTGGCAGTCGCAGTGAAGGAGGGTCAAGATTGCACAGCAGTGATTCAGAGCTCTGCCAGGACAGCTGCCAGTGCAGTTTATCTCCCAGTCCGATCAGGCCTTGGCGCAGGGAGGGAAGGTGGCCC | -0.074
CAGGACATAGCACACTTTTGAATTCATTTTACAACTATTTATTGAGTGCTTTTTATGTGCCAGATTCCCCCCAGCTCCCACTGGTGGTACAGTGTAAATATAGCTGTGAAAACATGCACTTTTCTCAGCCTTCATTATCATTCTAGTGAAGGGGGCAGATGGTAAACAACTGAACAATTAAGTAAACATGACA | 0.498
GGTCAGAGAATGCTAATCAGCCATGAAGTGGGCTTGCCATGACTCTGACACTGTATCTCCTGGTGCACTCTGCGGTAGGTGCATCTTTCCAGAGTAAATACAAAGTGAACTTGACGGGAAAGGAGACCTTAGCAGTCCTACAAAGGCAATTTTGCAAGCTGTCTGGCTGTGGAATTAGTGGAATGTTTTCTCA | 0.184

Set 2 — target: CEBPE, bZIP domain (human); method: DHFR protein complementation; matrix: yeast; relative to: wild-type JUN-FOS pair; reading: higher = stronger binding
Setting: single substitutions, most at no-binding floor
Parent: JUN, bZIP domain (human); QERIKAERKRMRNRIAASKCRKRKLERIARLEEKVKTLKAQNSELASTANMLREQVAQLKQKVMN; partner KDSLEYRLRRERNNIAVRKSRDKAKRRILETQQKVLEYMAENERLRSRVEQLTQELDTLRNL
Change | binding fitness
A46G | -1.39 natural log
A49M | -1.03 natural log
Q55E | -1.13 natural log
E54A | -1.25 natural log
S47N | -0.971 natural log
K36H | -1.26 natural log
L45E | -1.46 natural log
L38N | -1.54 natural log
E33D | -1.11 natural log
K36C | -1.21 natural log
L38R | -1.51 natural log
V56Y | -1.12 natural log
R30Q | -0.964 natural log
E54Y | -1.22 natural log
E44N | -1.29 natural log
Q55M | -1.25 natural log
Q41M | -1.14 natural log
Q55S | -1.41 natural log
S47R | -0.912 natural log
V35P | -1.53 natural log
E33W | -1.35 natural log
I28G | -1.31 natural log
A29D | -1.17 natural log
V56M | -1.38 natural log

Set 3 — method: RNA Bind-n-Seq; molecule type: RNA; matrix: in vitro; concentration: 100 nM; relative to: input RNA pool; reading: higher = stronger binding
Target: RING finger protein unkempt homolog, zinc fingers 1-6, SBP tag (UNK, Homo sapiens, UniProt Q9C0B0, residues 30-357)
Sequence of UniProt Q9C0B0 (30-357, looked up): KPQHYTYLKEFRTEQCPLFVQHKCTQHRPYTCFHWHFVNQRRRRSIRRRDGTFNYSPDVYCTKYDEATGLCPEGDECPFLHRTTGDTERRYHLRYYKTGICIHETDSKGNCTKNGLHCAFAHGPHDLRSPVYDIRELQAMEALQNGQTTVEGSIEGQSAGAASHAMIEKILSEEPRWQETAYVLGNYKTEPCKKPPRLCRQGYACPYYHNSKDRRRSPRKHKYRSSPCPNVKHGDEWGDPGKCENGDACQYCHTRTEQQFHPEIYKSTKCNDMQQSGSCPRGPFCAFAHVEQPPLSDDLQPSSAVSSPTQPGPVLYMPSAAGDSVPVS
Setting: RNA with constant flanks, vertebrate orthologous sites, ends assumed
Shared flanks, not repeated: GGGAGUUCUACAGUCCGACGAUC … CAACAGAGGAUUGAGCAUCA
Strand | bound/input enrichment [ratio]
UAAAGGUUUUUUUUUUUUAAUUUAAUUUUUCCUUUUGGGGGUAAAGUUUGCUCUACCAAAUAGUGAUCGUAACAAAUUGAUCUGUUUUGGAUGUUGCUAUAGUGACAUGCAGUUAUAUAU | 0.618
UUGUACUGCGAAAGUCAUCCUACCUCUAAAACUGCACAGUGAUCCCAAACUAGUCUAUAUUAGGGAAUCACUUGCUGUCACAUUGUCAUUGGUGUGUGUCUGAUCCCUGAACUGGUCACA | 0.612
CAGGGAGAAGAGAUCACAAACUCAAAGAAAAACUAUGAAAGAGUUCUAAUAGUUAAAAGCCAGGAAAGAUUAGGACAAUUUUACAAAUGAGCAGUCAAAAAGAAAAGAACAGAAAAAGCC | 0.731
GUGGGGAUUGGGGUGGGGUGGGAAGAAGAUGUAUGGAUAUUAUUGGCAUUUUUAAGUGUUCAGAGUUUUUUGUGUUGUUUUUUUUUUUUUGGUUUUGUUUUGUUUUUGUUUUCCCUCUCG | 1.16
GUUGAACAUAAAUGUUUCCACUGGGUUUUGCUUAUAAGAAGAAAUGGACCCAUGCACUUAUAUAGCUUUUUAAUAGCGUUAACCAAUGCAUUUUUAGACAUAUUUUGAUGUAUAUAUCUA | 1.53
AGUAGUUUAAAGCUUGUUUGCACAGUUCUUUUUUUCCAUUGGAAAUGGAAUUCAUUGCCUUAGGUCUUUUUAAAUAGUGUAUUAUUAUCGUUGGGGCUGGCUCUAUGCUUGAAAACCAGU | 3.06
UCAUCUCUUUUUAUAUGUCCAAAAUGGCUUUGAAAUUUUUAAACAGUUGCUAGUUUUACUCAGCUCUGCCCUCAUGAAGUAUUGUUGUUGGUCACUGACAGACAGAGUCUGUUACUUCAG | 0.442
GUACUACCUGUGCAAAUCUCACAACACUGAAUACAAAGUAGCAAUUUUCAUAGUCACAGUUAGGUAGCUUUAGGGCAAUAUUGCCAUGGUUUUACUCAUGUGCAGGUUUUGAAAAUGUAC | 1.83

Set 4 — method: yeast two-hybrid; molecule type: peptide; matrix: yeast; setting: mostly zero background; relative to: not given; reading: higher = stronger interaction
Molecule: ANYISAHTKDCPKCNICIEKNGGCNHMQCSKCKHDFCWMCLGDWKTHGSE (ARIH2 RING domain (UniProt O95376))
target | lacZ reporter activity
UBE2Z UBC core domain (UniProt Q9H832) | 14600
UBE2L3 UBC core domain (UniProt P68036) | 0
BIRC6 UBC core domain (UniProt Q9NR09) | 0
UBE2R2 UBC core domain (UniProt Q712K3) | 0
UBE2T UBC core domain (UniProt Q9NPD8) | 0
UBE2S UBC core domain (UniProt Q16763) | 0
UBE2M UBC core domain (UniProt P61081) | 0
UBE2E3 UBC core domain (UniProt Q969T4) | 0
UBE2J2 UBC core domain (UniProt Q8N2K1) | 0

Set 5 — method: RNA Bind-n-Seq; molecule type: RNA; matrix: in vitro; concentration: 365 nM; relative to: no-protein control; reading: higher = stronger binding
Target: RNA binding protein fox-1 homolog 2, RRM domain, GST-SBP tag (RBFOX2, Homo sapiens, UniProt O43251-10, residues 100-194)
Setting: natural RNA segment, single round, ends assumed
Shared flanks, not repeated: GGGAGUUCUACAGUCCGACGAUC … UGGAAUUCUCGGGUGCCAA
Construct (chain): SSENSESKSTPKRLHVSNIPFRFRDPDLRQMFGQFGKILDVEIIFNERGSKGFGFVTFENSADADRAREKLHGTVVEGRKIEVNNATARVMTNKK
Strand | RBNS enrichment (R)
UGUAAUGGGAAUGUUUAAGUGUUGUGUGCAAGAAAACAAAAUAAAUAUUUUGAUUUUCGUGAUUCUAUGCAUGUCUGUCUACACACUGUCCAAAUAAGCUGGUUCUGGGA | 17.3
AGACAAGAAGUGCCCUUAUAAACCCCUGCAGCCCUGCAGCCCUGAAAUAAAUUUUGCAAUUAGUUUCAGUAGCAUUUGUGAAUUUGCAUUCUGAAUCGAGGUGUAGUCCC | 0.672
GCUUUGGGUUUGAAGGGCAAGGGUGGCUGUGAACCACCCCCACCCAGCCGUCAGGCCCGCUUCGUCGUCAUCUCUAUCUCCCUGCUCCCUGGCCCUGAGGGUUUGGAAUC | 0.236
AAAUGUCUUGAUGGAAGGUAUUAAACUAUUUGCCUGUUGUACAAAGAAAUGUUAAGACUCGUGAAAAGAAUUACUAUAAGGUACUGUGAAAUAACUGCGAUUUUGUGAGC | 0.377
UCGUUAAGCUGAACCAGUGUCUUUACAUUUCAUUUGUACUUCAAAAAAUAUGCUAUUGUUUAGACUUUCCAUCCUUUUUUUUUUUAUUUUGAGGAAAAGUCAAAUUCAUU | 1.09
UACAGGAGCCAGACGCCAGGGCCUGCCCGGCCUCCUGUUCCUGCCCCCACCCACCACCUGCCUGGAGAGGAACGGGUCGGGUCCGUGUCGGAGAAGUGACAGGUCCCAGA | 0.474
AGUUUGGCAUUUUUUGUCGUUUGUGCACAUAACUUGGUGUUAUCCUUAUGUCAUCAGAUUCCUCCUAGGGGAGAGUUUUUGUUUUAAUUACAAAAUUAAAUUCUACAUUG | 0.612
UAUUUCUUCCCUCACUGCUGAUUCUUAGAUAGAAACCAUUCUUUAUAUUUGAUAGACUGCUUUCAGAAAACCCUUAUCAACAAGUGUACAAUACUUAUCUAAAACUAUAC | 0.474

Excerpt of the above (set 4):
target | lacZ reporter activity
UBE2L3 UBC core domain (UniProt P68036) | 0
BIRC6 UBC core domain (UniProt Q9NR09) | 0
UBE2R2 UBC core domain (UniProt Q712K3) | 0
UBE2T UBC core domain (UniProt Q9NPD8) | 0
UBE2S UBC core domain (UniProt Q16763) | 0
UBE2M UBC core domain (UniProt P61081) | 0
UBE2E3 UBC core domain (UniProt Q969T4) | 0
UBE2J2 UBC core domain (UniProt Q8N2K1) | 0
